Experimental data collected from several papers.
Compare with care: the assays were run in different laboratories. ± gives the spread as reported.
TGM2: TGM2 2-687 (Homo sapiens, UniProt P21980)
Chain of UniProt P21980 (whole entry, looked up): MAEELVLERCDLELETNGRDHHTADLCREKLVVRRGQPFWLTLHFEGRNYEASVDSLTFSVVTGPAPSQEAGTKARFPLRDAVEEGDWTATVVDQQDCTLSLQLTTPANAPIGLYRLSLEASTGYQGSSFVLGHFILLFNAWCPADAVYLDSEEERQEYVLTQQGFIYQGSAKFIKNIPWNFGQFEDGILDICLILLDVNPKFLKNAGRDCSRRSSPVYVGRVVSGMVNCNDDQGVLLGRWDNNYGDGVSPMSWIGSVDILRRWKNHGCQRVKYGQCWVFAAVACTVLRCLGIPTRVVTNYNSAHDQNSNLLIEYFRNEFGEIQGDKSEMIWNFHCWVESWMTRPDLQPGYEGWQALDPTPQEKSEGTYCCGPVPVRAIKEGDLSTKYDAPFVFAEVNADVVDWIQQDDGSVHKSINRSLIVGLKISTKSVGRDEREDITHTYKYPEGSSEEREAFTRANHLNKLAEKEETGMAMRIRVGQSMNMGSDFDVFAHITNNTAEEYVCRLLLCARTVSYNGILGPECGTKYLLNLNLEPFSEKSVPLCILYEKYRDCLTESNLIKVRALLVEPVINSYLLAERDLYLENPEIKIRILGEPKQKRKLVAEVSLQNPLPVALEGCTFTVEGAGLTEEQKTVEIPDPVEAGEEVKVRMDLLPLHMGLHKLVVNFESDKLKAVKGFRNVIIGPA
U2AF2: U2AF2 148-342 (Homo sapiens, UniProt P26368)
Chain of UniProt P26368 (whole entry, looked up): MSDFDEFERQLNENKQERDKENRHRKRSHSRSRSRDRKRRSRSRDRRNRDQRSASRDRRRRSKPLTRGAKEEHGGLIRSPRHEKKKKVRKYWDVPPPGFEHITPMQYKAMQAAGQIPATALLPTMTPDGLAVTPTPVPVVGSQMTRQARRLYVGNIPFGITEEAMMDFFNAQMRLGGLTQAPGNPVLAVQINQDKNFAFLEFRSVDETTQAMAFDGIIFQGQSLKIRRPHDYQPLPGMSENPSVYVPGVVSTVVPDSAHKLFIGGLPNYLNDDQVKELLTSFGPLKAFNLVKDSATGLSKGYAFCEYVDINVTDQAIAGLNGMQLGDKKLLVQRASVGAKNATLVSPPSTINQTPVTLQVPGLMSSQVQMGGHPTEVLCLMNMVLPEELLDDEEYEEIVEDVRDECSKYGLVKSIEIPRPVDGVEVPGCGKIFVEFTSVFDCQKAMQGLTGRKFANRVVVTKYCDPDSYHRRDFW
PHO4: PHO4 1-312 (Saccharomyces cerevisiae, UniProt P07270)
Chain of UniProt P07270 (whole entry, looked up): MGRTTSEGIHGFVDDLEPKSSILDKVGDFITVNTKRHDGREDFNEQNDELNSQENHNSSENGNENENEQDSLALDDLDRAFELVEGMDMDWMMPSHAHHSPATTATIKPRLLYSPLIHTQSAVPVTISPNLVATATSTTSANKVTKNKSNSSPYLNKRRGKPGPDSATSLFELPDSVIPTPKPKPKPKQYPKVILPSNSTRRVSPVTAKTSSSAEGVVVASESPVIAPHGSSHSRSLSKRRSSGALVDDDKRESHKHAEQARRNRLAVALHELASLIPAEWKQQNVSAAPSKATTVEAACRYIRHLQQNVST
pdhR full length assumed: pdhR full length assumed (Escherichia coli, UniProt P0ACL9)
Chain of UniProt P0ACL9 (whole entry, looked up): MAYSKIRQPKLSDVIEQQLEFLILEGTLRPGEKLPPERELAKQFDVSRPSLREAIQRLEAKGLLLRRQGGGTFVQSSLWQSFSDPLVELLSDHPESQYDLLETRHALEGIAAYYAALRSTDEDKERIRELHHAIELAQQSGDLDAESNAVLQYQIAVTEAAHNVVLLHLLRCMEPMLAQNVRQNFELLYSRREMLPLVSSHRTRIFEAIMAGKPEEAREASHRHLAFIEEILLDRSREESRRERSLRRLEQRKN
CBF1 full length assumed: CBF1 full length assumed (Saccharomyces cerevisiae, UniProt P17106)
Chain of UniProt P17106 (whole entry, looked up): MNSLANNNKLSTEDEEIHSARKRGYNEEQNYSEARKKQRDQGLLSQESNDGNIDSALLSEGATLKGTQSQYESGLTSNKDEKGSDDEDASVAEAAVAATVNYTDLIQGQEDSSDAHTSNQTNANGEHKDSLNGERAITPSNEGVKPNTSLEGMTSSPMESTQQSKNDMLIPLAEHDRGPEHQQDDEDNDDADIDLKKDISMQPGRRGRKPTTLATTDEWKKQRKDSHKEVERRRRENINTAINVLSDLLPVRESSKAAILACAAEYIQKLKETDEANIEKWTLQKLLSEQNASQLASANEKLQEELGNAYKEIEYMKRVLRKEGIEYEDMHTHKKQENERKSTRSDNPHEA
SPT15 full length assumed: SPT15 full length assumed (Saccharomyces cerevisiae, UniProt P13393)
Chain of UniProt P13393 (whole entry, looked up): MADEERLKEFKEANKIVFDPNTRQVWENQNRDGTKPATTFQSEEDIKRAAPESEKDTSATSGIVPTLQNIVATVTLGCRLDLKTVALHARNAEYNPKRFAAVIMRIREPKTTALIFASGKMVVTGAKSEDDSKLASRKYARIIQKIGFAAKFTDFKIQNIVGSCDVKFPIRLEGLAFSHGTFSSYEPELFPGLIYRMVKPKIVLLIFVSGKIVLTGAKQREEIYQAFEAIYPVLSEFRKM
PARP1 216-1014 del1-215: PARP1 216-1014 del1-215 (Homo sapiens, UniProt P09874)
Chain of UniProt P09874 (whole entry, unmodified, looked up): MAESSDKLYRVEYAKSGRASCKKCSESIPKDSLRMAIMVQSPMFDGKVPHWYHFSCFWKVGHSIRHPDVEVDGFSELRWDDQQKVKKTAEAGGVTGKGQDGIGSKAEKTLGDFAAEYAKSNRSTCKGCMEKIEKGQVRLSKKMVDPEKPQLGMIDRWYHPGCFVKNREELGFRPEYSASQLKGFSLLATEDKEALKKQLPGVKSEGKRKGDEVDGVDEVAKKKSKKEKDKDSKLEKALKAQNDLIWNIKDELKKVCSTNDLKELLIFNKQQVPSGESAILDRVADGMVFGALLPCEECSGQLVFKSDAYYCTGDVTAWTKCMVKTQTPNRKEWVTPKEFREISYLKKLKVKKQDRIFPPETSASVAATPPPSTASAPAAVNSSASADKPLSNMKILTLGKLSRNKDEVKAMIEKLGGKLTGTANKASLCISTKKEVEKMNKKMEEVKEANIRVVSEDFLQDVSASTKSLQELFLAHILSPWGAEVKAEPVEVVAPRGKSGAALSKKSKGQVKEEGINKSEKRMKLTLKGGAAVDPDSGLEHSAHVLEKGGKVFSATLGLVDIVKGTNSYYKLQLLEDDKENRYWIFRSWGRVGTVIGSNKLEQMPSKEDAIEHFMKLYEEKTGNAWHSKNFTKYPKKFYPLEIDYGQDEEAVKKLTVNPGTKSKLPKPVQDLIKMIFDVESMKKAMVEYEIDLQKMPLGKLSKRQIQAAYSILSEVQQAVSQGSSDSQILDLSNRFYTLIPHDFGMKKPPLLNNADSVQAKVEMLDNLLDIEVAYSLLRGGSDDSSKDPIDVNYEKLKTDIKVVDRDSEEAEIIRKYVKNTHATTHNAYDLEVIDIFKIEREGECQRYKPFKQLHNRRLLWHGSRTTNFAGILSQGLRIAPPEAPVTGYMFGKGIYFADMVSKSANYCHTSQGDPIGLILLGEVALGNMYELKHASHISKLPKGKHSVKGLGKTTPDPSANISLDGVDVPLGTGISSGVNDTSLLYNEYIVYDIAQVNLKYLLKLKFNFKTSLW
nac full length assumed: nac full length assumed (Escherichia coli, UniProt Q47005)
Chain of UniProt Q47005 (whole entry, looked up): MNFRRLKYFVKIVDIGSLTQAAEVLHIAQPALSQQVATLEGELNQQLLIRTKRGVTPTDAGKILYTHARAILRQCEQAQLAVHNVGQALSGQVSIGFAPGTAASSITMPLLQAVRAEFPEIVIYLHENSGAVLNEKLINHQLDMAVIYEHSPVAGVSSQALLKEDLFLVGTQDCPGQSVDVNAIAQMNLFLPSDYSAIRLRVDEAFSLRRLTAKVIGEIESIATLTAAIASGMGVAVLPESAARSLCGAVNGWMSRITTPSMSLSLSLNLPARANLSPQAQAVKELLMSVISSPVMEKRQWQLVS
CIN5 full length assumed: CIN5 full length assumed (Saccharomyces cerevisiae, UniProt P40917)
Chain of UniProt P40917 (whole entry, looked up): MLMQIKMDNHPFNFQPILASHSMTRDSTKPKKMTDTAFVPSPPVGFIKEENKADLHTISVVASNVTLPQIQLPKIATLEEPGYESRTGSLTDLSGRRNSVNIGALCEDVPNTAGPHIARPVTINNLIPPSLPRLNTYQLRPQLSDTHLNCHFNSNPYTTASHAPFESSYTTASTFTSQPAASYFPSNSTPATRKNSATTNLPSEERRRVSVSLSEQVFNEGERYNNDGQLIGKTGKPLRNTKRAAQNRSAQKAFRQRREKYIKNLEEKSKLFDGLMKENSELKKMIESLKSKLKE
T1: MUTYH 1-535 (Homo sapiens); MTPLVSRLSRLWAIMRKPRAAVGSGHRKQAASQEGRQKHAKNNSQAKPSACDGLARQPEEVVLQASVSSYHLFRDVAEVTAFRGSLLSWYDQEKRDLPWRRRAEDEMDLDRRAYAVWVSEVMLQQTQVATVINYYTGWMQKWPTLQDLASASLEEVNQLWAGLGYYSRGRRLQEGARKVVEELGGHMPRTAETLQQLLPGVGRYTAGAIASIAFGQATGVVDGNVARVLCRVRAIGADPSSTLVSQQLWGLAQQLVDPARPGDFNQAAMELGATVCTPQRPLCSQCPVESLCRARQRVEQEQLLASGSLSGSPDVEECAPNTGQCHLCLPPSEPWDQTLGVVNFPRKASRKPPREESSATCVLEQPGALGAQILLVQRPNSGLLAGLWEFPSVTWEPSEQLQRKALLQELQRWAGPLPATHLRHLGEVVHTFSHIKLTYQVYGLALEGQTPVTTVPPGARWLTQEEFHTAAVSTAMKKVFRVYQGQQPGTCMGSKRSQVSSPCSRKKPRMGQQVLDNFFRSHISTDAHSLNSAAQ
Chain of UniProt Q15020 (whole entry, looked up): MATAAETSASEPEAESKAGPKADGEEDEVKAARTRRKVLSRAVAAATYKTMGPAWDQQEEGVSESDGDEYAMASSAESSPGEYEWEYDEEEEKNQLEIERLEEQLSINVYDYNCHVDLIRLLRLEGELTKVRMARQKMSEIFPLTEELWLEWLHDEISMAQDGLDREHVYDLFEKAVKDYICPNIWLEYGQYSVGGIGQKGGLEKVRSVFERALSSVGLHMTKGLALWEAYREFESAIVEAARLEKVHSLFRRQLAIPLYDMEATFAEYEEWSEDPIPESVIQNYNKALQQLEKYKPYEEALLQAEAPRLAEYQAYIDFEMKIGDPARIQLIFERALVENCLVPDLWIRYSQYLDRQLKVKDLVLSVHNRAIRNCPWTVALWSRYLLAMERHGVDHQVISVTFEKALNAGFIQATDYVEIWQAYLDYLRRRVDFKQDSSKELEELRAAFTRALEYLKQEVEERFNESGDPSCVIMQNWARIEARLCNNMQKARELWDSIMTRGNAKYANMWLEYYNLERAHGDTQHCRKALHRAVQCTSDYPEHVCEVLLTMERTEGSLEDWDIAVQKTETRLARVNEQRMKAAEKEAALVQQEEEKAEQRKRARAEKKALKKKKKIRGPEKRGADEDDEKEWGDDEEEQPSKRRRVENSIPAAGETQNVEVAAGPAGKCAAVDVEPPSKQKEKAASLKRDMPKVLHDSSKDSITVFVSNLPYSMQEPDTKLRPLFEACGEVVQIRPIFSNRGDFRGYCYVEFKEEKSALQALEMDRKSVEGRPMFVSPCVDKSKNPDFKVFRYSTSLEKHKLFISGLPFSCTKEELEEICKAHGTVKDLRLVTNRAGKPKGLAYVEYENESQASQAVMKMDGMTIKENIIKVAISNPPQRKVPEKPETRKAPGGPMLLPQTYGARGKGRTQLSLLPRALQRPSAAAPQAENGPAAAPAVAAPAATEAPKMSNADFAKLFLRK

With `GGGAGCAGGAGAGAGGUCAGAUGGUCGAGAUUCUGAGGGUUCUCCUGGUGGCUCCUAUGCGUGCUAGUGUGA (ssRNA; 2'-fluoro pyrimidines)` the relative binding was 340 RU (TGM2; SPR; RNA; together with: MgCl2 5 mM; higher = more binding).
The Kd of `AUCCUUUUA (ssRNA)` is reported as 9330 nM (U2AF2; sequencing of bound RNA; RNA; motif only).
`GGCAAGGAGUCUGCACUUCGGUGCUCAGCUUUGCC (RNA; hairpin, internal loop, tetraloop)` gave a Kd of 204 ± 20.6 nM (LARP6 73-183 G74C/K166A (Homo sapiens, UniProt Q9BRS8); MST; folded RNA).
`CUUCUAUCU (ssRNA)` gave a Kd of 16600 nM (U2AF2; sequencing of bound RNA; RNA; motif only).
With `GAUAAAGAUCAUGACAUCGACUACAAGGACGACGACGACAAGGUUGUGGAGCUGAUCGAGAAGCACCACCACCACCACCACAAAGUGGUGAUGAACUAA (RNA; predicted 2-5 helices)` the Kd was 780 ± 380 nM (FXR2 full length assumed (Homo sapiens, UniProt P51116); fluorescence anisotropy; folded RNA; together with: tRNA competitor).
For `UUUGAUUUU (ssRNA)`, the Kd was 4280 nM (U2AF2; sequencing of bound RNA; RNA; motif only).
`GGAAGTGACGTACGTCGTGCACACGTGGTCCGGCGTCAAGTCAATCGGTCC (dsDNA; 5'-amino-C6 primer)` gave a Kd of 1.65 ± 0.59 nM (SUA7 full length assumed (Saccharomyces cerevisiae, UniProt P29055); array; double-stranded DNA, one strand shown; TFIIB alone).
`TCCTAGTGTCCACCAAATTCCTCAGCGCTCGCTCACCCTCCTCTACGGCCACGACTCTGGGAGTG (dsDNA)` gave a Kd of 49 nM (TDG 1-410 (Homo sapiens, UniProt Q13569); EMSA; double-stranded DNA, one strand shown).
The Kd of `DNA 1 TCAAAGTATCCAAATGAACGAATATGACTTTAGGAGTAGAGCGCGTGAGGATACA / DNA 2 TGTATCCTCACGGCGTCTAC (dsDNA; primer/template, 3' dideoxy-C, 5' overhang, mismatches)` is reported as 45.6 nM (polA 324-928 (Escherichia coli, UniProt P00582); fluorescence polarization; double-stranded DNA; without H2O2, together with: dTTP).
`CAATACACTGTTATCAGTCACACGTGTCGAGCTACTCGTTCGGTTATCCGGCGGTATGAC (dsDNA)` has a Kd of 196 ± 5 nM (PHO4; MITOMI; double-stranded DNA, one strand shown; not purified).
The Kd of `GGTAACTTAGCGTCTCGTTGTGATTAAGTTTGACGAGGAATGGAATGCGATGCGCATAACG (dsDNA)` is reported as 2060 nM (pdhR full length assumed; BLI; double-stranded DNA, one strand shown).
`GGGAGCAGGAGAGAGGUCAGAUGUGUAGGGAAUGACCGGGUUCCUGGUGCCCGCCUAUGCGUGCUAGUGUGA (ssRNA; 2'-fluoro pyrimidines)` has a relative binding of 277 RU (TGM2; SPR; RNA; together with: MgCl2 5 mM; higher = more binding).
With `CGCCATGTAGACATGTATACATGTCCACATGTCGACATGTCTACATGTGCACATGCTCCGGCGGTATGAC (dsDNA)` the Kd was 130 ± 10 nM (CBF1 full length assumed; MITOMI; double-stranded DNA, one strand shown; not purified).
`TCCTGAAGGGGCGCACTAGCTTGGTCCTATCGTCGTCAAGTCAATCGGTCC (dsDNA; 5'-amino-C6 primer)` gave a Kd of 3 ± 0.31 nM (SPT15 full length assumed; array; double-stranded DNA, one strand shown; TBP alone).
With `UCAGACUUU (ssRNA)` the Kd was 4720 nM (U2AF2; sequencing of bound RNA; RNA; motif only).
The Kd of `CTGAAGGGGGGGCTATAAAAGGGGATGGGGGCTCCTCAAGTCAATCGGTCC (dsDNA; 5'-amino-C6 primer)` is reported as 0.7 ± 0.03 nM (SPT15 full length assumed; array; double-stranded DNA, one strand shown; TBP alone).
`RNA 1 GCGGUGUAUAGCCUAAUCUUUACCGC / RNA 2 GCGGUAAAGAUUAGGCUAUACACCGC (dsRNA)` gave a Kd of 126 ± 10 nM (PARP1 216-1014 del1-215; fluorescence polarization; double-stranded RNA; Hill coefficient 0.85).
For `CUUGAUUUU (ssRNA)`, the Kd was 3780 nM (U2AF2; sequencing of bound RNA; RNA; motif only).
`DNA 1 TGATTTCTTCGAAGAATATACTAAAAAATGAGCAGTCAATTCAATCGGTCC / DNA 2 GGACCGATTGACTTGACTGCTCATTTTTTAGTATATTCTTCGAAGAAATCA (dsDNA; 5'-amino-C6 primer)` has a Kd of 15.4 ± 0.83 nM (SPT15 full length assumed; array; double-stranded DNA; TBP alone).
With `AGCGTCACAGACATGAAATTGGTAAGACCAATTGACTTCGGCAAGTGGCTTAAGACAGGAA (dsDNA)` the Kd was 11000 nM (glnG full length assumed (Escherichia coli, UniProt P0AFB8); BLI; double-stranded DNA, one strand shown).
`CAATACACTGTTATCAGACACACGTGTCGGGCTACTCGTTCGGTTATCCGGCGGTATGAC (dsDNA)` has a Kd of 213 ± 12 nM (CBF1 1-351 (Saccharomyces cerevisiae, UniProt P17106); MITOMI; double-stranded DNA, one strand shown; not purified).
With `GGAACGAUACAGAGAAGAUUAG (ssRNA)` the Kd was 940 ± 160 nM (SART3 697-786 (Homo sapiens, UniProt Q15020); ITC; RNA).
With `ACAGGGGTGTGGGCACAGGGGTGTGGGC (G-quadruplex DNA (Homo sapiens); intramolecular G4)` the Kd was 3 nM (IGF2 fragment (Homo sapiens); SPR; folded DNA; together with: IGF-2 0.1-100 pM).
`GCAAUUUGG (ssRNA)` gave a Kd of 17300 nM (U2AF2; sequencing of bound RNA; RNA; motif only).
`CATTCGCCCGCTATAAGTAAACCCTATGGAACTCATCATAAATGAGACTTTTACCTTATGA (dsDNA)` gave a Kd of 3.02 nM (nac full length assumed; BLI; double-stranded DNA, one strand shown).
The Kd of `CGCACCTAATGACGCAATGACGGAATGACGTAATGACTCAATGACTGAATGACTTCTCCGGCGGTATGAC (dsDNA)` is reported as 900 ± 70 nM (CIN5 full length assumed; MITOMI; double-stranded DNA, one strand shown; not purified).
`RNA 1 CGGCAGGACGUACAUCCCUCCCGGCUCCCCUCCCGCUGGCCUGCCG / RNA 2 CGGCAGGCCAGCGGGAGGGGAGCCGGGAGGGAUGUACGUCCUGCCG (dsRNA)` gave a Kd of 51.8 ± 5.4 nM (PARP1 216-1014 del1-215; fluorescence polarization; double-stranded RNA; Hill coefficient 0.59).
`CTTAAATCTTGCATTGGTTTTCCTTATATTCAGACTTTGTTATATAAGGCTTTCGTCTTTG (dsDNA)` has a Kd of 8.98 nM (nac full length assumed; BLI; double-stranded DNA, one strand shown).
The Kd of `UUCAGAGGA (ssRNA)` is reported as 500 ± 40 nM (SRSF1 1-248 S225A/S227A/S231A/S234A/S238A/S242A/S244A/S246A (Homo sapiens, UniProt Q07955); fluorescence polarization; RNA).
`CTCAGGAATTCCTATACAGTAATGTGGAGCTCAGTTCAAGTCAATCGGTCC (dsDNA; 5'-amino-C6 primer)` gave a Kd of 1.6 ± 0.08 nM (SPT15 full length assumed; array; double-stranded DNA, one strand shown; TBP alone).
The Kd of `CCTGCGGTATTGACACTTGAGGGGCGCGACTACTGACAGATGAGGGGCGCGATCCTTGACACTTGAGGGGCAGAGTGATGACAGATGAGGGGCGCACCTATTGACATTTGAGGGGCTGTCCACAGGCAG (dsDNA)` is reported as 21.8 nM (trfA 98-382 G254D/S267L/R156E (Escherichia coli, UniProt P07676); SPR; double-stranded DNA, one strand shown).
For `CGCTAAAGTGGCAAAGTGGGAAAGTGGTAAAGTGTCAAAGTGTGAAAGTGTTAAACTCCGGCGGTATGAC (dsDNA)`, the Kd was 24000 ± 19000 nM (CIN5 full length assumed; MITOMI; double-stranded DNA, one strand shown; not purified).
The Kd of `GGUGCCUCCCAGUGGUCUUUGUAGACUGCCUGAUGGAGUCACCC (RNA; hairpin with internal loops/bulges)` is reported as 14 ± 2 nM (GATA1 200-319 (Homo sapiens, UniProt P15976); fluorescence anisotropy; folded RNA).
With `CGCGCGACCACGCTACCACGGCACCACGGGACCACGGTACCACGTCACCACGTGACTCCGGCGGTATGAC (dsDNA)` the Kd was 33 ± 5 nM (CBF1 full length assumed; MITOMI; double-stranded DNA, one strand shown; not purified).
The Kd of `CACUUCUUA (ssRNA)` is reported as 9600 nM (U2AF2; sequencing of bound RNA; RNA; motif only).
The Kd of `CGATCATGGAGCCACGAGCTCCCGTTACAG / CTGTAACGGGAGCTAGTGGCTCCATGATCG (dsDNA; blunt, 8-oxoG:2'-fluoro-arabino-A pair)` is reported as 0.2 ± 0.1 nM (T1, MUTYH 1-535 (Homo sapiens); EMSA).
`AUAUGAAUUU (ssRNA)` has a Kd of 5100 nM (DND1 1-230 (Homo sapiens, UniProt Q8IYX4); MST; RNA).
The Kd of `ATGGCGGGCTATGATCCTAT (dsDNA; blunt, N2-nBu-dG at position 7)` is reported as 7 ± 1 nM (HMGB3 full length assumed (Homo sapiens, UniProt O15347); fluorescence anisotropy; double-stranded DNA, one strand shown).
With `GAATTCCTAAAAAGTAATGTGGAGCTCCGTTCGTCTCAAGTCAATCGGTCC (dsDNA; 5'-amino-C6 primer)` the Kd was 31.9 ± 2.66 nM (SPT15 full length assumed; array; double-stranded DNA, one strand shown; TBP alone).
The Kd of `CAATACACTGTTATCAGACACACGTGCCGAGCTACTCGTTCGGTTATCCGGCGGTATGAC (dsDNA)` is reported as 74 ± 2 nM (PHO4; MITOMI; double-stranded DNA, one strand shown; not purified).
`CATTCGCGCATTATAAGTAATGGTCATGGAACTCATCATAAATGAGACTTTTACCTTATGA (dsDNA)` has a Kd of 20.2 nM (nac full length assumed; BLI; double-stranded DNA, one strand shown).
With `CGCAAAAACAACUAAAUCAAAACCAA (ssRNA; unstructured)` the Kd was 220 ± 24 nM (PARP1 216-1014 del1-215; fluorescence polarization; RNA; Hill coefficient 0.81).
`TTCTGATCACCGACATGAAAGCTAACAGGAACGTTAAGTGCCTTAGCTCCGGCTACCGTGC (dsDNA)` has a Kd of 3220 nM (nac full length assumed; BLI; double-stranded DNA, one strand shown).
For `ATGACATGACACGTTACGTT (dsDNA)`, the Kd was 47 nM (HMGB1 A+B boxes (Rattus norvegicus, UniProt P63159); fluorescence anisotropy; double-stranded DNA, one strand shown; together with: Mg2+ 2 mM).
The Kd of `TTTGCGTGGGCTGTGGTGCTTT (ssDNA)` is reported as 1600 ± 1300 nM (traI 309-569 (Escherichia coli, UniProt P14565); fluorescence titration; single-stranded DNA).
For `AGCGTCACAGACATGAACATGGTCTGACCATTTGTCCTCGGCAAGTGGCTTAAGACAGGAA (dsDNA)`, the Kd was 3.5 nM (pdhR full length assumed; BLI; double-stranded DNA, one strand shown).
